# Published values gathered from unrelated publications.
# Lines come from different studies, so protocols differ. Several values in a cell are separate wells, animals, samples, runs or records. ± gives the spread as reported.
Compound,assay,system,conditions,scale,measurement,result
CCCC[C@H](NC(=O)CN1CCC(NC(=O)CN2CCC(NC(=O)CN3CCN(CC(=O)O)CCN(CC(=O)O)CCN(CC(=O)O)CC3)CC2)CC1)C(=O)N[C@H]1CC(=O)NCCCC[C@@H](C(N)=O)NC(=O)[C@H](Cc2c[nH]c3ccccc23)NC(=O)[C@H](CCCNC(=N)N)NC(=O)[C@@H](Cc2ccccc2)NC(=O)[C@H](Cc2c[nH]cn2)NC1=O [gallium-68 labelled],biodistribution,C57BL/6J mouse male tumour-bearing,"1 h post injection, unblocked",baseline: tumour over kidney,tumour to kidney ratio,1.1 ± 0.3
Cc1cc(Nc2nc(C[C@@]3(C(=O)O)CCN(Cc4cccc(Cl)c4F)[C@H](C)C3)cc(C)c2F)n[nH]1,,"BALB/c nude mouse, female, NCI-H446 xenograft, tumour","oral, 10 mg/kg, 12 h",,tumour concentration,< 100 ng/g
CC(=O)N[C@@H](Cc1ccc(O)cc1)C(=O)N[C@@H](CC(C)C)C(=O)N[C@@H](CS)C(=O)N[C@@H](CO)C(=O)N[C@@H](CO)C(=O)N[C@@H](CC(N)=O)C(=O)N[C@@H](CC(N)=O)C(=O)N[C@@]1(C)CCCC=CCCC[C@@](C)(C(=O)N[C@@H](CCCCN)C(=O)N[C@@H](Cc2ccccc2)C(=O)N[C@@H](CCCNC(=N)N)C(=O)N[C@@H](CCCNC(=N)N)C(=O)NCC(=O)NCC(=O)N[C@@H](CO)C(=O)NCC(=O)NCC(=O)N[C@H](C(=O)N[C@@H](CO)C(=O)N[C@@H](Cc2ccccc2)C(=O)N[C@@]2(C)CCCC=CCCC[C@@](C)(C(=O)N[C@@H](Cc3c[nH]c4ccccc34)C(=O)N[C@@H](CC(C)C)C(=O)N[C@@H](Cc3c[nH]c4ccccc34)C(=O)N3CCC[C@H]3C(N)=O)NC(=O)[C@H](Cc3c[nH]c4ccccc34)NC(=O)[C@H](Cc3ccccc3)NC(=O)[C@H](CCC(N)=O)NC2=O)[C@@H](C)O)NC(=O)[C@H](CCCNC(=N)N)NC(=O)[C@H](CCC(=O)O)NC(=O)[C@H](CCCNC(=N)N)NC1=O,,"mouse, CWR22Rv1 xenograft, tumour",,,tumour residence time,> 48 h
CSCC[C@H](NC(=O)CNC(=O)[C@H](CCCCN)NC(=O)[C@H](CC(C)C)NC(=O)[C@@H]1CCCN1C(=O)[C@H](CO)NC(=O)[C@H](Cc1c[nH]cn1)NC(=O)[C@H](Cc1c[nH]c2ccccc12)NC(=O)[C@H](CCCNC(=N)N)NC(=O)[C@H](CC(C)C)NC(=O)[C@H](CCCNC(=N)N)NC(=O)[C@H](Cc1c[nH]c2ccccc12)NC(=O)[C@H](CS)NC(=O)CCCCCNC(=O)CN1CCN(CC(=O)O)CCN(CC(=O)O)CCN(CC(=O)O)CC1)C(=O)O [copper-64 labelled],,"C57BL/6J mouse, B16-F10 tumour, tumour","intravenous, 1.85 MBq, 2 h",,tumour uptake,4.99 %ID/g
O=C(O)CCC(NP(=O)(O)OCCC[C@@H](NC(=O)CCC(NC(=O)c1ccc([18F])cc1)C(=O)O)C(=O)O)C(=O)O (some centres unmarked),radioactivity,"mouse, CWR22Rv1 xenograft",1 h,baseline: tumour over blood,tumour to blood ratio,10 and 9.88
CN[C@](C)(C[18F])C(=O)O,,SCID mouse U87 xenograft,60 min post injection,,tumour uptake,2.8 ± 1 %ID/g
O=C(O)CCC(NP(=O)(O)OCCC[C@@H](NC(=O)CCC(NC(=O)CCCCCNC(=O)c1ccc([18F])cc1)C(=O)O)C(=O)O)C(=O)O (some centres unmarked),radioactivity,"mouse, CWR22Rv1 xenograft",2 h,baseline: tumour over blood,tumour to blood ratio,63.6 and 64
CNC(=O)[C@H](CCC(=O)NCCCC[C@@H]1NC(=O)[C@@H](Cc2ccccc2)NC(=O)[C@H](CC(=O)O)NC(=O)CNC(=O)[C@H](CCCNC(=N)N)NC1=O)NC(=O)CN1CCN(CC(=O)O)CCN(CC(=O)O)CCN(CC(=O)O)CC1 [gallium-68 labelled],,"female nude BALB/c mouse, SK-RC-52 xenograft, tumour","intravenous, 2 h",,tumour uptake,3.3 ± 0.3 %ID/g
